Measured values of several laboratories.
Each numbered part is a random draw from the data of one study; scales do not carry over between parts.

Study 1 — method: protein-binding microarray; form: double-stranded DNA, one strand shown; matrix: in vitro; tested at: 0.8 µM; setting: whole 60-bp probe, no competitor; direction: higher = stronger binding
Target: Centromere-binding protein 1, full length, N-terminal tag (CBF1, Saccharomyces cerevisiae, UniProt P17106, residues 1-351)
Chain of UniProt P17106 (whole entry, looked up): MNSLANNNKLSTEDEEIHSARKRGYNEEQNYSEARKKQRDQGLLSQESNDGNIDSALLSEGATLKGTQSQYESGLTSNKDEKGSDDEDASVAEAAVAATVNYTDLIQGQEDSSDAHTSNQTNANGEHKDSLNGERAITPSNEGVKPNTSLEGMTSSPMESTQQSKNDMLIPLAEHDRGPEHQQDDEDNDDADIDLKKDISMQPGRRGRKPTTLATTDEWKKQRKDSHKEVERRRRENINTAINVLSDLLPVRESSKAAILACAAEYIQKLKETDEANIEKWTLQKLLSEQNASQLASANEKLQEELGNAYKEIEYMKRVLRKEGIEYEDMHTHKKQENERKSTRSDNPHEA
The fluorescence intensity of `CCTAACTACTATAATCTGATTGGATAGCTTCGTACAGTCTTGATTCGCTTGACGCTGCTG` is reported as 525 a.u.
`CTAAAGAGGATGTGTCACCATGGTAGCAAAGATTTCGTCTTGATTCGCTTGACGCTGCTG` gave a fluorescence intensity of 529 a.u.
The fluorescence intensity of `CTAATGCACCTGGTGCACGCTGCGAAGGTGACGTTCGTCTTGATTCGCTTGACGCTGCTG` is reported as 829 a.u.
`GAACGGCTATCGTATCACATGATAGTCACGTGCTAGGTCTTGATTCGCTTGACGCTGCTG` has a fluorescence intensity of 20200 a.u.
`GAACTTTCAGCTGGTCACGCTATGCCTAAAGAATAGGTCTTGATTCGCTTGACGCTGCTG` has a fluorescence intensity of 1630 a.u.
`CTAATAGAAGTATATCATATGATATTTCGAACTTTCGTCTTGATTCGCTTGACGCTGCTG` gave a fluorescence intensity of 704 a.u.
For `CTACCAAGATCAAATCTCACATGTTTATCATTCTTCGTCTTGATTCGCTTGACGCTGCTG`, the fluorescence intensity was 636 a.u.
The fluorescence intensity of `CTACAATACCACCATGACGTCATTAACTTAAATTTCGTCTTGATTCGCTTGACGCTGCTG` is reported as 537 a.u.

Study 2 — method: RNA Bind-n-Seq; form: RNA; matrix: in vitro; tested at: 200 nM; setting: whole 134-nt RNA, ends assumed; added: 150 mM KCl; baseline: input library; direction: higher = stronger binding
Target: Ras GTPase-activating protein-binding protein 1, full length (G3BP1, Homo sapiens, UniProt Q13283)
Chain of UniProt Q13283 (whole entry, looked up): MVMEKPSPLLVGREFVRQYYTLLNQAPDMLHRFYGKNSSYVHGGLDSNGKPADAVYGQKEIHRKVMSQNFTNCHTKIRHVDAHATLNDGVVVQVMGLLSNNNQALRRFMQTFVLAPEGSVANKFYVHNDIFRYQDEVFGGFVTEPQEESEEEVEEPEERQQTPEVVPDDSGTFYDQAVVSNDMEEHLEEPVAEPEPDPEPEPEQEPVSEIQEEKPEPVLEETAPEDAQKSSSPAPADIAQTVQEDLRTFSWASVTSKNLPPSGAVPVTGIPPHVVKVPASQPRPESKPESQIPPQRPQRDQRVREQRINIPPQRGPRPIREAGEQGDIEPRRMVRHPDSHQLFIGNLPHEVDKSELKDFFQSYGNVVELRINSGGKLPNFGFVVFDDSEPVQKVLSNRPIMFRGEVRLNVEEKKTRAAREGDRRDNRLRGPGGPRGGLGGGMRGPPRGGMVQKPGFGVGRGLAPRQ
For `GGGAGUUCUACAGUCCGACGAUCCAAGUCCUGUGCUACACAUCGUAUGUACCGAAUCGGAAAAAGGAGGUUUUUUUGGAAAGUAUUAUGUUACGCCGUUCGGAUCUGCACUUCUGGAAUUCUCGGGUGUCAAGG`, the log2 enrichment was -1.06.
`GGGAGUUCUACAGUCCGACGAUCUGCAGUGAUGGUCAUUGUCCUCCAGAGCAGUGAUGGAGGAAAUACCAGCCCAGGAAGCAGCAGGGUCACCAAGGGUCCAGUUUCAGUCUUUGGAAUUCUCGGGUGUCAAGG` has a log2 enrichment of -0.513.
For `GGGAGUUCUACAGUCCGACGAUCUAUGAGGAUGAGUUGGUGCCCCUUUUUGAGAAGGCCGGACCCAUUUGGGAUCUACGUCUUAUGAUGGAUCCACUGUCCGGUCAGAAUAGAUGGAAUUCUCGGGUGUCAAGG`, the log2 enrichment was 0.3.
For `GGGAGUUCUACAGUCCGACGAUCAAGUCCUGUGCUACACAUCGUAUGUACCGAAUCGGGGAGGGGUUUGGGGUUUGGGGAAAGUAUUAUGUUACGCCGUUCGGAUCUGCACUUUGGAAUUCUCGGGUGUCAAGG`, the log2 enrichment was 0.941.
`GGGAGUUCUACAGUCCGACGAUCCUCAAGUCCUGUGCUACACAUCGUAUGUACCGAAUCGGGUUGGGUUGGUUGGGGAAAGUAUUAUGUUACGCCGUUCGGAUCUGCACUUCCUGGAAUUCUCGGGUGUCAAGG` gave a log2 enrichment of 0.981.
With `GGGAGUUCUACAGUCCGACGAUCCACAGACAACACGCACCCACACAGACACAGAGGGAAGGGGUUGGGAGGGGGACAGGGUGCACAGCAGGGCGGGGUAGGACCCCAGCCCCUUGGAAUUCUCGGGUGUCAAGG` the log2 enrichment was 1.92.
`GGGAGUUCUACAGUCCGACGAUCCCUGUGCUACACAUCGUAUGUACCGAAUCGGGGCCCCCCGGGGCCCCCCGGGCCCCCCGGGAAAGUAUUAUGUUACGCCGUUCGGAUCUGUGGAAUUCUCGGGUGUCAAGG` has a log2 enrichment of -0.541.

Study 3 — method: universal PBM; form: double-stranded DNA, one strand shown; matrix: in vitro; tested at: 600 nM; direction: higher = stronger binding
Target: Sal-like protein 4, full length isoform A (SALL4, Homo sapiens, UniProt Q9UJQ4, residues 1-1053)
Chain of UniProt Q9UJQ4 (whole entry, looked up): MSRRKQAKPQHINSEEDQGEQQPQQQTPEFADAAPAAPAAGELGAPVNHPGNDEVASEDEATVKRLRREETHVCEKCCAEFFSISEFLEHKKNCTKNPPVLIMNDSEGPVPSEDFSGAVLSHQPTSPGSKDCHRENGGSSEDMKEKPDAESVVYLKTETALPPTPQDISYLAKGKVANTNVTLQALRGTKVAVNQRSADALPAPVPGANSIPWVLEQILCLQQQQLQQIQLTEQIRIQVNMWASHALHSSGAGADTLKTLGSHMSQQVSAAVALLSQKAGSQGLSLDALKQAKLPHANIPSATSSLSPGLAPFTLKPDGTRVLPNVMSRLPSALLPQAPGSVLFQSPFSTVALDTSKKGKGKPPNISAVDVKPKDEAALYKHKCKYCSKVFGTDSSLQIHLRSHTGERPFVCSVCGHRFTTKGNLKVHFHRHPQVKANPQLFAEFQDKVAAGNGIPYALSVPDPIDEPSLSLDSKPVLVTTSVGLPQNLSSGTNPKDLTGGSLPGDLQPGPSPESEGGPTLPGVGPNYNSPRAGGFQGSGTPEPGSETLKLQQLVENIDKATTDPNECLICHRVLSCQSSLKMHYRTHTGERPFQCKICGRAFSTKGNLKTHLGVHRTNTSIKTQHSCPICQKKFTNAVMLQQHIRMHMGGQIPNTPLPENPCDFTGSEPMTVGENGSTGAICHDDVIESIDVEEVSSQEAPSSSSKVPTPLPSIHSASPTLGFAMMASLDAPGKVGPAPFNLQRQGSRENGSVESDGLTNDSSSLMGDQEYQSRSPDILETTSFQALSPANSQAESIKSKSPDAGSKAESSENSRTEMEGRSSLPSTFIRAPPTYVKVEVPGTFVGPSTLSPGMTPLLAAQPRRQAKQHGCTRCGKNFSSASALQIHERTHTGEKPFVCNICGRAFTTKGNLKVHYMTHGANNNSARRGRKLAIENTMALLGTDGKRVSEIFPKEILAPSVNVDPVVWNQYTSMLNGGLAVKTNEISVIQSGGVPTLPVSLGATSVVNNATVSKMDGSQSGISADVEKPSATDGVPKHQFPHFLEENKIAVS
Setting: 8-mer, flanks averaged, mean of replicates
For `CAGCGAGA`, the E-score was -0.17.
With `CCGTAACA` the E-score was 0.122.
The E-score of `CAAAATAA` is reported as 0.333.
For `ATGGAGCA`, the E-score was -0.03.

Further values, each from its own experiment
`PhoQ, residues 284 288 289 292 302 303 TNSAEL` gave a fold induction of 11.7 (PhoP, residues 12 14 15 18 19 NMSFL (Escherichia coli, UniProt P23836); Sort-seq, measured: YFP reporter; E. coli; PhoQ-PhoP variant library, added: 10 µM Mg2+; baseline: high Mg2+ state, higher = stronger signaling).

Excerpt of the above (study 1):
`CTAATAGAAGTATATCATATGATATTTCGAACTTTCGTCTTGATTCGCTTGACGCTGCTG` gave a fluorescence intensity of 704 a.u.
For `CTACCAAGATCAAATCTCACATGTTTATCATTCTTCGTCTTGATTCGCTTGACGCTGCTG`, the fluorescence intensity was 636 a.u.
